Results pooled from the literature.
Each line is one published result; not all experiments were run side by side. Several values in a cell are separate wells, animals, samples, runs or records. Numbers after ± are the reported error.
SLC22A1: Solute carrier family 22 member 1 (SLC22A1, Homo sapiens, UniProt O15245)
Chain of UniProt O15245 (whole entry, looked up): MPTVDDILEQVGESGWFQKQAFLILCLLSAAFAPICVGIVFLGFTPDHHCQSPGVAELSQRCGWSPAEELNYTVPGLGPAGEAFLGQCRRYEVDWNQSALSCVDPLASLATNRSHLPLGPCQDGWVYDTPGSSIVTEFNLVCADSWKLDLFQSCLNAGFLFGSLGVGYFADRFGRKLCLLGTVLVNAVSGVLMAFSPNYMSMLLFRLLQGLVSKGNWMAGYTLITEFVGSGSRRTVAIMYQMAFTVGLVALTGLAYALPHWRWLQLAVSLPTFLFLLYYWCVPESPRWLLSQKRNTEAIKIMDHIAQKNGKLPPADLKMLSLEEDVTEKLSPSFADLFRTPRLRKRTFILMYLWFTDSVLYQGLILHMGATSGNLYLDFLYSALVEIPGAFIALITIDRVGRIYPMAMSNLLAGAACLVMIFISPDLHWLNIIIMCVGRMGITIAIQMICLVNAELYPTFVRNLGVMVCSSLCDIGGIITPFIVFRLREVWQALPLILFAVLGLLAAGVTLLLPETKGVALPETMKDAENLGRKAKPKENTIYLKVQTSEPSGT
CYP1A2: Cytochrome P450 1A2 (CYP1A2, Homo sapiens, UniProt P05177)
7-alpha-hydroxycholest-4-en-3-one 12-alpha-hydroxylase: 7-alpha-hydroxycholest-4-en-3-one 12-alpha-hydroxylase (Homo sapiens, UniProt Q9UNU6)
Chain of UniProt Q9UNU6 (whole entry, looked up): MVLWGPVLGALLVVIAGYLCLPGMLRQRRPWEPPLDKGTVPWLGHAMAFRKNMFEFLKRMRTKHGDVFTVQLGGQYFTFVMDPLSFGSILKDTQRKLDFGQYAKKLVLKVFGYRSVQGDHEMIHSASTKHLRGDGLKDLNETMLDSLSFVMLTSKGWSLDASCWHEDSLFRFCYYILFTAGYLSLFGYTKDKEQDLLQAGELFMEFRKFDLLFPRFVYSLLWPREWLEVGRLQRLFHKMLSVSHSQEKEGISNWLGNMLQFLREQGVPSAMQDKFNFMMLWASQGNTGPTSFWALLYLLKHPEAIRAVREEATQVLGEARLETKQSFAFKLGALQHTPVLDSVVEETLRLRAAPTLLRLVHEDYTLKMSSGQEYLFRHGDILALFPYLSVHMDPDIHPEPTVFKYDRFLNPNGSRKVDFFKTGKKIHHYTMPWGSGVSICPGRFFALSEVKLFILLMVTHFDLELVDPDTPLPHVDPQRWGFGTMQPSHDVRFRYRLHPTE
CYP2E1: Cytochrome P450 2E1 (CYP2E1, Homo sapiens, UniProt P05181)
Chain of UniProt P05181 (whole entry, looked up): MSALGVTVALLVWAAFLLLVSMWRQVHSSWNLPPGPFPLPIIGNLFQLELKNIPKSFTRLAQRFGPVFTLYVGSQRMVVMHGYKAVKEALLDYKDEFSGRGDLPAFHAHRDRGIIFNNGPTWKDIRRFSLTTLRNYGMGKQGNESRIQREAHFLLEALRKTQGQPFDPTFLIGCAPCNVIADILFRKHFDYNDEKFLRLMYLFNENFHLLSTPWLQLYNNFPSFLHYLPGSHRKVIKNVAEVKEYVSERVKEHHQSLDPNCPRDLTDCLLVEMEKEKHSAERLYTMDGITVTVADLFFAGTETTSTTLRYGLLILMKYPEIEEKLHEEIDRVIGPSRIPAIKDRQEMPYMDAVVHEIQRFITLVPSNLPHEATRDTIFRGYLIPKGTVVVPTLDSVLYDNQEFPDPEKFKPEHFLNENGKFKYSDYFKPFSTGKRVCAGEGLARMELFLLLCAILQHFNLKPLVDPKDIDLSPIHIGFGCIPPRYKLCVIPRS
Chain of UniProt P38624 (whole entry, looked up): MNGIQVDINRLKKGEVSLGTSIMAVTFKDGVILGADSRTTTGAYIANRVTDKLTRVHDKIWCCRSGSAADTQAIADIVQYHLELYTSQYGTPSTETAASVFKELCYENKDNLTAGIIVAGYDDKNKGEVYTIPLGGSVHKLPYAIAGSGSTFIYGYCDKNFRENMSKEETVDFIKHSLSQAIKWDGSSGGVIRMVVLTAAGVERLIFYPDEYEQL
Chain of UniProt P25043 (whole entry, looked up): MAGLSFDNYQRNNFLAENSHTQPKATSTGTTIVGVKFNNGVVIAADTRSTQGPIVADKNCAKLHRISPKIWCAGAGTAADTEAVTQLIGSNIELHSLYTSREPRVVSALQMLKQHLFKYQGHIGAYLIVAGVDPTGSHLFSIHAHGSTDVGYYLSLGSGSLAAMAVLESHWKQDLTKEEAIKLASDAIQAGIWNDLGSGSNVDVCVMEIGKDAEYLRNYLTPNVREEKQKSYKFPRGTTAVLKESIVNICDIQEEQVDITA
Chain of UniProt Q14524 (whole entry, looked up): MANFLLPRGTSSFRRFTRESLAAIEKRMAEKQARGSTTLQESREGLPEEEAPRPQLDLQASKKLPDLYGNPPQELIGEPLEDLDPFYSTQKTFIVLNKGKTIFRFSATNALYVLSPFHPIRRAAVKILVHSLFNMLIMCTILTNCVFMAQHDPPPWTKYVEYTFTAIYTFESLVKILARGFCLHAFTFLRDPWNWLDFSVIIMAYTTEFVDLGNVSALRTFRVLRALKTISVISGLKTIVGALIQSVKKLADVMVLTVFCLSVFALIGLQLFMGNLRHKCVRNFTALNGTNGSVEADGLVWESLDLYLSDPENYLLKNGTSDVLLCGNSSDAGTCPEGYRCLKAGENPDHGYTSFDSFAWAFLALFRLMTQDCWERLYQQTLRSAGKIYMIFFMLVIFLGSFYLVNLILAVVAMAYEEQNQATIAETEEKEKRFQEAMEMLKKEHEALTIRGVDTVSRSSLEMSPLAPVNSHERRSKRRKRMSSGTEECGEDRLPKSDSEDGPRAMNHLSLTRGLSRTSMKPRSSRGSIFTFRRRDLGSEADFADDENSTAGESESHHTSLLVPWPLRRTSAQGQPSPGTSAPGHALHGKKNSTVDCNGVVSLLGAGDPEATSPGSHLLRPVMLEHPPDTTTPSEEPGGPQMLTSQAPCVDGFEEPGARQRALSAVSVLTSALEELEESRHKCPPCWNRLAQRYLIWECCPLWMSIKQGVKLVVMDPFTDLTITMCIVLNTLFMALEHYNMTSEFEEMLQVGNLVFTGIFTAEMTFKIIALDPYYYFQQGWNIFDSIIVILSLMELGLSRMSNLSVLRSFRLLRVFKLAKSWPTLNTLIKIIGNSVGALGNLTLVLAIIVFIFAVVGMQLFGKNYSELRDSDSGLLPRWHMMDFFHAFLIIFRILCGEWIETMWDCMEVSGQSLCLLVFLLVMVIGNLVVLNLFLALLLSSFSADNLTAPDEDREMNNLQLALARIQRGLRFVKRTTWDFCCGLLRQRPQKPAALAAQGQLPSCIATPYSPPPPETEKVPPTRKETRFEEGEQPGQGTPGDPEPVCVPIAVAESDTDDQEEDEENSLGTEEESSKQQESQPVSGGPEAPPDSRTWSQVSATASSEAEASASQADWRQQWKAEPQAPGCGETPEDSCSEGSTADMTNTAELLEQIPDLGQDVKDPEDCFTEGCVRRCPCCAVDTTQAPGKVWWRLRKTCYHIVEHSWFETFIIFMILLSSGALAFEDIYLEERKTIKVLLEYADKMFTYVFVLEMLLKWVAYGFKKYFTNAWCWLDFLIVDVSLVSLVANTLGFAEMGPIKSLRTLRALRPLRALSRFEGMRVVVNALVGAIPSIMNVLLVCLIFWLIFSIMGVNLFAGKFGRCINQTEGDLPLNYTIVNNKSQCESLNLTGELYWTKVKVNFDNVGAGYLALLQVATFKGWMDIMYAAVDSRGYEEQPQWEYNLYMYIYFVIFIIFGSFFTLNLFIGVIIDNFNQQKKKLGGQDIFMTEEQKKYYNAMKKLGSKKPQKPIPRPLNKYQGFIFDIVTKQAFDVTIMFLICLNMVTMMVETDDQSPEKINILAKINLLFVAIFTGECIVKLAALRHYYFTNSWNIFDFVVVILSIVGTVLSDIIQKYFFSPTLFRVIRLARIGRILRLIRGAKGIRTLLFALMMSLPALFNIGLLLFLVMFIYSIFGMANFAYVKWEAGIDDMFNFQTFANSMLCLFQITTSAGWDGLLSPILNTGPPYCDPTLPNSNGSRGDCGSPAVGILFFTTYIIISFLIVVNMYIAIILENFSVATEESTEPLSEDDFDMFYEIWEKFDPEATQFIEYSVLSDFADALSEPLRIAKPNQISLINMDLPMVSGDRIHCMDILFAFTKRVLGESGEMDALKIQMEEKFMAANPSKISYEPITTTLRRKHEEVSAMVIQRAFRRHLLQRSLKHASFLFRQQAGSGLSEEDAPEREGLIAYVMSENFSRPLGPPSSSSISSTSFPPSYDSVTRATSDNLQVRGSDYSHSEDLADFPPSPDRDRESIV
Chain of UniProt P30656 (whole entry, looked up): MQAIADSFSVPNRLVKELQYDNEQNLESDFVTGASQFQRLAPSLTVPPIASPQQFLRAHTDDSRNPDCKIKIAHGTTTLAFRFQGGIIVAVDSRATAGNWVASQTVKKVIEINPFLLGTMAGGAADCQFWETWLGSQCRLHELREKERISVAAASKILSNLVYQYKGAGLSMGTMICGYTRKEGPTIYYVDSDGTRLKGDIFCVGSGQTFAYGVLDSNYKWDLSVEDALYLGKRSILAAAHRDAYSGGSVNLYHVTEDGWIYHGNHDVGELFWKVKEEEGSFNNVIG

SMILES = CC(=O)NCCCC[C@@H]1NC(=O)[C@H](Cc2c[nH]c3c(C)cccc23)NC(=O)[C@H]([C@@H](C)O)NC(=O)[C@H](CC(N)=O)NC(=O)[C@@H](NC(C)=O)C(C)(C)SSC(C)(C)[C@@H](C(=O)N[C@@H](Cc2ccc(OCCN)cc2)C(=O)N[C@@H](Cc2ccc3ccccc3c2)C(=O)NC2(C(=O)N[C@@H](CCC(=O)O)C(=O)N[C@@H](CC(N)=O)C(=O)N[C@@H](Cc3cccnc3)C(=O)N(C)CC(N)=O)CCOCC2)NC1=O; tested on = human alpha-1-acid glycoprotein 0.07%; test = equilibrium dialysis; conditions = 0.01 µM; measurement = fraction unbound; result = 93.3 ± 0.6%
SMILES = CSc1nc2[nH]nc([N+](=O)[O-])c(=O)n2n1; tested on = SLC22A1; test = transport, inhibitor; test system = transiently transfected cells; conditions = 100 µM, 10 (unit not given), added: metformin; measurement = inhibition; result = -3.1%
SMILES = CCN(CC)CCOc1ccc(-c2nnn(Cc3ccc(OC)cc3)c2N)cc1; tested on = CYP1A2; test = CYP phenotyping; conditions = concentration not given; measurement = inhibition; result = 10.4%
SMILES = COC(=O)[C@@H](NC(=O)c1nn(Cc2ccc(F)cc2)c2cc(OCCCCNC(=N)N)ccc12)C(C)(C)C; tested on = central CB1 receptor; test system = mouse; conditions = intraperitoneal; measurement = lowest dose producing hypothermia; result = 20 mg/kg
SMILES = CC12CCC(=O)C=C1CCC1C2C=C(c2cccnc2)C2(C)C(=O)CCC12 (stereo not shown); tested on = 7-alpha-hydroxycholest-4-en-3-one 12-alpha-hydroxylase; test = 12α-hydroxylation of 7α-hydroxycholest-4-en-3-one, inhibitor; conditions = 80 µM, wild type; measurement = inhibition; result = no inhibition
SMILES = C[C@@H](c1ccc2nccn2c1)n1nnc2nc(O)c(-c3cnn(C)c3)nc21; tested on = CYP2E1; test = enzyme activity, inhibitor; test system = human, liver microsomes; measurement = IC50; result = > 50 µM
SMILES = O=C1NC2(CC2)COc2ncc(F)cc2[C@H]2COCCN2c2ccn3ncc1c3n2; test system = Sprague-Dawley rat, male, serum; conditions = oral, 10 mg/kg/day, 4 weeks daily, end of recovery period; measurement = creatine kinase activity; result = 531 ± 261 U/L
SMILES = Oc1c(Br)cccc1Br; tested on = CYP2E1; test = p-nitrophenol hydroxylation, inhibitor; conditions = with additive 100 µM; measurement = Ki; result = 4.3 µM
SMILES = CCCCCCCC/C=C/CCCCCCCC(=O)[O][Pt-2]1([OH])([Cl])([NH+]=C(CC)N(C)CCNc2c3ccccc3[nH+]c3ccccc23)[NH2+]CCC[NH2+]1.O=[N+]([O-])[O-].O=[N+]([O-])[O-]; tested on = bovine serum albumin; test system = FBS medium; measurement = protein-bound fraction; result = > 95%
SMILES = O=C(O)c1ccc(-c2nc(-c3ccccc3Cl)c3sccn23)cc1; tested on = KCNQ1 potassium channel; test = radioligand binding; conditions = 10 µM; scale = reference: control; measurement = specific binding; result = 95.6% and 100%
SMILES = CC(C)C[C@H](NC(=O)[C@@H](N)CCCCN)C(=O)N[C@H](C(=O)N[C@@H](Cc1ccccc1)C(=O)N[C@@H](Cc1ccccc1)C(=O)N[C@@H](C)C(=O)N[C@@H](CCC(=O)O)C(=O)N[C@@H](CC(=O)O)C(=O)N[C@H](C(=O)NCC(=O)N[C@@H](CO)C(=O)N[C@@H](CC(N)=O)C(=O)N[C@@H](CCCCN)C(=O)O)C(C)C)C(C)C; tested on = PUP1/PRE2/PRE3 (Saccharomyces cerevisiae, UniProt P25043+P30656+P38624); test = nanoLC-HRMS; conditions = 2 µM, 30 min, pH 8, 37 °C, proteasome 2 nM, added: amyloid-β 1-40 peptide; scale = reference: initial; measurement = remaining substrate; result = 33%
SMILES = Cc1cc(-c2ccc3ccccc3c2)nnc1NCCN1CCN(C)CC1; tested on = CYP1A2; test = substrate; test system = recombinant enzyme; conditions = 100 nM, 0.5 h; measurement = remaining compound; result = 88%
SMILES = CNC(=O)C1OC(n2cnc3c(NCc4cccc(I)c4)ncnc32)C(O)C1O (stereo not shown); tested on = SLC22A1; test = transport, inhibitor; test system = transiently transfected cells; conditions = 100 µM, 10 (unit not given), added: metformin; measurement = inhibition; result = 81.3%
SMILES = C[C@]12CC[C@H]3[C@@H](CC[C@H]4C[C@H](O)CC[C@@]43C)[C@@H]1CC(=O)C2; tested on = Sodium channel protein type 5 subunit alpha (SCN5A, Homo sapiens, UniProt Q14524); test = ion current, blocker; measurement = IC50; result = 19.4 µM
SMILES = C[C@@H](c1ccc2nccn2c1)n1nnc2ncc(-c3cn[nH]c3)nc21; tested on = CYP1A2; test = enzyme activity, inhibitor; test system = human, liver microsomes; measurement = IC50; result = 22 µM
SMILES = C[C@@]12C(=O)CC[C@H]1[C@@H]1CC=C3C[C@@H](O)CC[C@]3(C)[C@H]1C=C2c1cccnc1; tested on = 7-alpha-hydroxycholest-4-en-3-one 12-alpha-hydroxylase; test = inhibitor; conditions = 80 µM, added: 7α-hydroxycholest-4-en-3-one; measurement = inhibition; result = no effect
SMILES = Cc1cc(Br)c(O)c(Br)c1; tested on = CYP2E1; test = p-nitrophenol hydroxylation, inhibitor; conditions = with additive 100 µM; measurement = IC50; result = 17 µM
SMILES = O=S(=O)(F)c1cccc(S(=O)(=O)Nc2ccc(C3CC3)c(F)c2)c1; tested on = GTPase KRas (KRAS, Homo sapiens, UniProt P01116); test = covalent modification; conditions = 4 °C; measurement = half-life; result = 8.1 h
SMILES = CNC(=O)C1CCCN(C(=O)C2CC3CCC2N3C(=O)[C@@H]2C[C@@H](O)CN2C(=O)NCc2cccc(Cl)c2F)C1 (mixture of isomers); tested on = CYP3A4 (human); test = inhibitor, time-dependent inhibition; conditions = 5.56 µM, preincubated without NADPH, added: midazolam substrate; scale = reference: negative control; measurement = remaining activity; result = 101%

A few entries again:
SMILES = CC(C)C[C@H](NC(=O)[C@@H](N)CCCCN)C(=O)N[C@H](C(=O)N[C@@H](Cc1ccccc1)C(=O)N[C@@H](Cc1ccccc1)C(=O)N[C@@H](C)C(=O)N[C@@H](CCC(=O)O)C(=O)N[C@@H](CC(=O)O)C(=O)N[C@H](C(=O)NCC(=O)N[C@@H](CO)C(=O)N[C@@H](CC(N)=O)C(=O)N[C@@H](CCCCN)C(=O)O)C(C)C)C(C)C; tested on = PUP1/PRE2/PRE3 (Saccharomyces cerevisiae, UniProt P25043+P30656+P38624); test = nanoLC-HRMS; conditions = 2 µM, 30 min, pH 8, 37 °C, proteasome 2 nM, added: amyloid-β 1-40 peptide; scale = reference: initial; measurement = remaining substrate; result = 33%
